Results from different studies.
Lines come from different studies, so protocols differ.
UniProt Q96GD4, sequence (whole entry, looked up): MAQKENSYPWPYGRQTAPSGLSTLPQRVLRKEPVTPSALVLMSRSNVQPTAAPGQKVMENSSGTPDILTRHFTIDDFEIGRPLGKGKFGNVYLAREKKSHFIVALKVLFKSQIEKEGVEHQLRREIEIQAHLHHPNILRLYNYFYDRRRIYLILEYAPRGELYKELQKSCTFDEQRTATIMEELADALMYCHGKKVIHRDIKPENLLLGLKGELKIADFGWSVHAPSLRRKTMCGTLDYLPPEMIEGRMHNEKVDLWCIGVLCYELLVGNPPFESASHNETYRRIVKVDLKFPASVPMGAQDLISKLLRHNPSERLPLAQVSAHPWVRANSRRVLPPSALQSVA
UniProt Q96RG2, sequence (whole entry, looked up): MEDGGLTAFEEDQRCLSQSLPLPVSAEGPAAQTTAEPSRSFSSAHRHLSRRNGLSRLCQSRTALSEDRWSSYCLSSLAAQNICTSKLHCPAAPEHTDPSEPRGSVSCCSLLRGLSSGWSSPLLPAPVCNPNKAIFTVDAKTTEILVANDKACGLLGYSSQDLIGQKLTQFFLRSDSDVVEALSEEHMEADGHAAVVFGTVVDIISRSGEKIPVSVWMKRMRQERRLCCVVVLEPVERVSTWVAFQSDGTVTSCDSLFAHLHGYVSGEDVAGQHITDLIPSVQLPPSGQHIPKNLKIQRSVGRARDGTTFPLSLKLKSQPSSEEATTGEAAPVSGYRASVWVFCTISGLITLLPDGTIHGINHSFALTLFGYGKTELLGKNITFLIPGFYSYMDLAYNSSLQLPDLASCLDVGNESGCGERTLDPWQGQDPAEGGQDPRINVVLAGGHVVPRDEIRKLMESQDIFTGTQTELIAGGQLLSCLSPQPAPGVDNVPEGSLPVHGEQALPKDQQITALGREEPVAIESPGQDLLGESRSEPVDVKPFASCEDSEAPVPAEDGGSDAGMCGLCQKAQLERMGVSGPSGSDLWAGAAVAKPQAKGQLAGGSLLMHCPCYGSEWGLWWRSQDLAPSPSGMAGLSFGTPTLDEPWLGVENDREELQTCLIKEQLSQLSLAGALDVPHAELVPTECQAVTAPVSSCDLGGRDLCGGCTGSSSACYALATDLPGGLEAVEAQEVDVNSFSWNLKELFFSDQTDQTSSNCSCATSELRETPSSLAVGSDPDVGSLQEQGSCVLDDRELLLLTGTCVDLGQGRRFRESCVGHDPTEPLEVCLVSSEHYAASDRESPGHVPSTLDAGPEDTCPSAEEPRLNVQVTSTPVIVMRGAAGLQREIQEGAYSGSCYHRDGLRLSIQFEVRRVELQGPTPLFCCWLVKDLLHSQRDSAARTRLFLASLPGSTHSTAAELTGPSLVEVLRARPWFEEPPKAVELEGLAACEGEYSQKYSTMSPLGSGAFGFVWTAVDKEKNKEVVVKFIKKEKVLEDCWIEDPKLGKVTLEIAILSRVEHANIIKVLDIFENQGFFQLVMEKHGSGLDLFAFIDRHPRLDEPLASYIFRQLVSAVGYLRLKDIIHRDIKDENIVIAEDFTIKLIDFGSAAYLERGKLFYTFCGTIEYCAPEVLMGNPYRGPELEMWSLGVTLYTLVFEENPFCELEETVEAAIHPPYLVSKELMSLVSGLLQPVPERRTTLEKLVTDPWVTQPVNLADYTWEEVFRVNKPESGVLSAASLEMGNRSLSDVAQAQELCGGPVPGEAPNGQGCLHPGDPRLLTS
UniProt Q8TBX8, sequence (whole entry, looked up): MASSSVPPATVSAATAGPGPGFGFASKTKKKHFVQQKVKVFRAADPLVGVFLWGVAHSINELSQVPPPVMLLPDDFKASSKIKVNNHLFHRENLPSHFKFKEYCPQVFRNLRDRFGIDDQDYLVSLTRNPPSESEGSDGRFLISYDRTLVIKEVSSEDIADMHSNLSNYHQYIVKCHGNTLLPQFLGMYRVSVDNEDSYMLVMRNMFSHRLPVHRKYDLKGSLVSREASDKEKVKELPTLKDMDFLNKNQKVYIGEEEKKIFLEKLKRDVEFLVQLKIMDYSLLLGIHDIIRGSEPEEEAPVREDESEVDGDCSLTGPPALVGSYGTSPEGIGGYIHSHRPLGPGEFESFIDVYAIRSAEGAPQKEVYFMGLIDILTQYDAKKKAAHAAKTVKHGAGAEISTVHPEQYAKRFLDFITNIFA
UniProt Q96GX5, sequence (whole entry, looked up): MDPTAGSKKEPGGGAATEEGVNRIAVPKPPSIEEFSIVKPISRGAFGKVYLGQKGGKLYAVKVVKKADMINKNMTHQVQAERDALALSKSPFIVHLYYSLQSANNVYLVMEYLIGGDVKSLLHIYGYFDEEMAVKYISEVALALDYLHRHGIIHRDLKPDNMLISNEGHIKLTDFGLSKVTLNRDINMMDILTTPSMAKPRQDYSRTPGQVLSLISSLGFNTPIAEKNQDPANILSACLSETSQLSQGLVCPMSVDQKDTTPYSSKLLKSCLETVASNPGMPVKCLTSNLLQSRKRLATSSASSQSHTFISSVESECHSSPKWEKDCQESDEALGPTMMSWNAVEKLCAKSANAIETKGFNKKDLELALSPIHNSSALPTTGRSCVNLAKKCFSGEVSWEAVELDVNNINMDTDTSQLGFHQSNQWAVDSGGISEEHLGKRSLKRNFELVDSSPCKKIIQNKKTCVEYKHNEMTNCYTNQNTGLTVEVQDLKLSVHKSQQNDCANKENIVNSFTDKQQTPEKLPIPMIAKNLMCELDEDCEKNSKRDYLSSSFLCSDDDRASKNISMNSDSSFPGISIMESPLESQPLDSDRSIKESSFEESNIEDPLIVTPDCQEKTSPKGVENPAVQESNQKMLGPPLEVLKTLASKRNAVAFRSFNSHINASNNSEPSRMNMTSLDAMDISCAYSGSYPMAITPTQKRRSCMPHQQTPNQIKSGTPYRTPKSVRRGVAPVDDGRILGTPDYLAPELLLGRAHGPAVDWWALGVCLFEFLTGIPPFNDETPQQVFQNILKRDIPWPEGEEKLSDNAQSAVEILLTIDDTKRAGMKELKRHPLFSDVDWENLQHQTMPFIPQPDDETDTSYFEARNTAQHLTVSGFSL
UniProt Q02750, sequence (whole entry, looked up): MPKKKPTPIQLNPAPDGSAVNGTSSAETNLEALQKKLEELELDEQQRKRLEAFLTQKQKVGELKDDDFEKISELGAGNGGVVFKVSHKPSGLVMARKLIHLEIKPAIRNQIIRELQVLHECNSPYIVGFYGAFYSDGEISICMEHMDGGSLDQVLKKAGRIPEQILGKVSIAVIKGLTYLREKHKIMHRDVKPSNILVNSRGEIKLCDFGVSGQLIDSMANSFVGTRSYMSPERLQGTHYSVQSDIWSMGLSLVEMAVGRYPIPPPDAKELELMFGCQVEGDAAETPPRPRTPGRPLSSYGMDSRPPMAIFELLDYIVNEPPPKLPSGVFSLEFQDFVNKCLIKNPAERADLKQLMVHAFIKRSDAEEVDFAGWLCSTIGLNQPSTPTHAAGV

CN(C)CCCNc1nccc(-c2c(-c3ccc(F)cc3)nn3cc(C(F)(F)F)ccc23)n1  EC50 (Trypanosoma brucei; parasite growth): 2510 nM
CNc1ncc2c(/C=C/C(=O)N3CCC(OC)CC3)nn(Cc3cccc(C(F)(F)F)c3)c2n1  remaining activity (MASTL (Homo sapiens, UniProt Q96GX5); enzyme activity, inhibitor, radiometric; 1 µM): 95%
C=CC(=O)N1CCC(COCC(=O)N2CCN(c3nc(-c4cnc(N)nc4C(F)F)nc(N4CCOC[C@@H]4C)n3)CC2)CC1  remaining binding (Aurora kinase B (AURKB, Homo sapiens, UniProt Q96GD4); binding, competition with immobilised ligand; 1 µM): 100%
CN(c1ccc(F)cc1)c1c(-c2cc(Cl)ccn2)nc2ccccn12  EC50 (Leishmania infantum; parasite growth; intracellular, amastigote): 3980 nM
COc1cc(-c2cncc3c2CN(C)Cc2cc(N4CCNCC4)ccc2-3)cc(OC)c1OC  remaining activity (PASK (Homo sapiens, UniProt Q96RG2); enzyme activity, inhibitor; 1 µM): 117%
Cc1cc(C(F)(F)F)c(C#N)c(SCC(=O)c2ccccc2)n1  EC50 (Leishmania infantum; parasite growth; mouse Macrophage; intracellular, amastigote): > 64000 nM
Cc1ccn2c(CNc3ccc(F)cc3)c(-c3ccccn3)nc2c1  EC50 (Leishmania infantum; parasite growth; intracellular, amastigote): 12600 nM
Nc1cccc(-c2cc3c(Oc4cccc(O)c4)ncnc3[nH]2)c1  EC50 (Trypanosoma brucei; parasite growth): 1100 nM
CCCCN(Cc1c(-c2ccccc2)nc2ccc(C)cn12)c1cccc(C(F)(F)F)c1  EC50 (Leishmania infantum; parasite growth; intracellular, amastigote): 2510 nM
CCCCC(=O)Nc1ccc(-c2ccc3ncn(CCC)c(=O)c3c2)cn1  remaining binding (PIP4K2C (Homo sapiens, UniProt Q8TBX8); binding, competition with immobilised ligand; 0.5 µM): 0.1%
Cc1cc(C)c(C#N)c(SCC(=O)c2ccncc2)n1  EC50 (Leishmania infantum; parasite growth; mouse Macrophage; intracellular, amastigote): 45500 nM
O=C(O[C@H]1CN[C@H](C#Cc2cc3ncnc(Nc4ccc5c(ccn5Cc5cc(F)ccc5F)c4)c3s2)C1)N1CCOCC1  EC50 (Trypanosoma brucei; parasite growth): 2000 nM
C[C@H]1CN(c2n[nH]c3nc(N[C@H]4CC[C@H](NS(=O)(=O)CCC(F)(F)F)CC4)ncc23)CCO1  EC50 (Leishmania donovani; parasite growth; THP-1; intracellular, amastigote): 1390 nM
Cc1cc(C)c(C#N)c(SCC(=O)N2CCOCC2)n1  EC50 (Leishmania infantum; parasite growth; mouse Macrophage; intracellular, amastigote): > 64000 nM
Cc1cc([C@@H](C)Nc2ccccc2C(=O)O)c2nc(N3CCC(F)(F)CC3)c(C#N)c(=O)n2c1  remaining binding (MAP2K1 (Homo sapiens, UniProt Q02750); binding, competition with immobilised ligand; 1 µM): 76%
